Measured values collected from several papers.
Parts stem from different laboratories: compare values within a part only. Substitutions count along the parent as printed.

Study 1
Target: JUNB, bZIP domain (human)
Method: DHFR protein complementation
Matrix: yeast
Notes: single substitutions, most at no-binding floor
Reference: wild-type JUN-FOS pair
Reading: higher = stronger binding
Parent: JUN, bZIP domain (human); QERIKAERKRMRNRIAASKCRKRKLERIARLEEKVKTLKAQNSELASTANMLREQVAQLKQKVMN; partner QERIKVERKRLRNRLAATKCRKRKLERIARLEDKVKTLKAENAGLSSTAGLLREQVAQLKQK
Variant	binding fitness
A57P	-1.55 natural log
A57S	-1.35 natural log
L52I	-1.48 natural log
N42F	-1.47 natural log
K36N	-1.21 natural log
T37G	-1.35 natural log
A49E	-1.19 natural log
L31G	-1.47 natural log
M51T	-1.19 natural log
E32G	-1.48 natural log
S47P	-1.49 natural log
E44V	-1.16 natural log
I28F	-1.31 natural log
E44R	-1.3 natural log
A40G	-1.42 natural log
E44Q	-1.18 natural log

Study 2
Target: RNA binding protein fox-1 homolog 2, RRM domain, GST-SBP tag (RBFOX2, Homo sapiens, UniProt O43251-10, residues 100-194)
Method: RNA Bind-n-Seq
Molecule type: RNA
Matrix: in vitro
Concentration: 365 nM
Notes: natural RNA segment, single round, ends assumed
Reference: no-protein control
Reading: higher = stronger binding
Target sequence (chain): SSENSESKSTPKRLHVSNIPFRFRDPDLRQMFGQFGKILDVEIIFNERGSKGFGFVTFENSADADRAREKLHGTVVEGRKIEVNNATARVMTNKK
Sequence	RBNS enrichment (R)
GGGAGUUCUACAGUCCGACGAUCCAAAGACCUUGUUACACAGAGAGCCUCCGAUAUCCUAAGUAGGGAGGACACUGUCAGUAGGGAACGGAAUGAAAACUCAAAUGUUGCCUGCAGUUGAGCAAGGAAGCUGAUGGAAUUCUCGGGUGCCAA	0.569
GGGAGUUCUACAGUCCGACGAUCGGCUACUGAUGGCUGAGUUCCACGGGGAGAGCCUGGUUUGGGCACAGGAGGCCACCGCCGAAGGCCACCUUACCUUCCUCCUUGCUGGCCCAGUUGUUGUUUAUUUAUGCUGGAAUUCUCGGGUGCCAA	0.489
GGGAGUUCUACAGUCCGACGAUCGAAGACUCAUGUUUAUGUCUGGAAUAAGUUCUGUUUGUGCUGACAGGUGGCCUAGGUCCUGGAGAUGAGCACCCUCUCUCUGGCCUUUAGGGAGUCCCCUCUUAGGACAGUGGAAUUCUCGGGUGCCAA	0.599
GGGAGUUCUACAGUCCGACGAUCACUAAGGCCUCUUGAUUCUUUCCCCUUGAACACUAUGAGCACUGACAAAUCAUGGUAGAGGUGCCCACCAACCAGUUUGCACAGUGGAGGCCACCUGACAUGCAUUAGCCUGGAAUUCUCGGGUGCCAA	0.645
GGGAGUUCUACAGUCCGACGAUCACCAUUCGGUGUAAACAUUUGUGUUUAUAAGAUUUACUUUGUUUUUAUUUUUCUACUUGGAACUGUACACAUUUGAAAAGUACCCAAAUAAACCAGAAGCUUUAUCGUUGUGGAAUUCUCGGGUGCCAA	0.312
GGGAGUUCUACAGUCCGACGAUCAAAUCCAGCUUUUGUUUGCCAGCCAAAUAGGGAGAGAUGCUCAAAGAAGCUUCAAGAAAGCACUGGGUUGUAGGUGUUAAAAUAUCCUCUAGUGAUGUUCACCACUUUUAUGGAAUUCUCGGGUGCCAA	0.488
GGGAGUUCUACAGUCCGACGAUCUUCGGGCAUAAAAUCUUUAUCUCCAGUUCAUAUAAUCUUGAGUUUUAGAUAUACACACAUGCGUAACAGCUGACAGUUUUUCACAAGUACACCCACCUGUAAAUACUGUAUGGAAUUCUCGGGUGCCAA	0.259
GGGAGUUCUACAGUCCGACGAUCUUUGUGGACUCAGUCAAGCAACCACAGUCUGUUAAUCAUUUCUCUAUGCUCAGAUGUCAGAUCCUCUUGUUAUUAGUGUGUCUUGUUCUGCACAGUGCAGGAGACUUUAUUGGAAUUCUCGGGUGCCAA	0.583
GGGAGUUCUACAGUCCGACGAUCUAUUUAGGUUUUAGAUGUUUAAUAGACACAGCACAUUUGCUCUAUUAACUCAGAGGCUCACUACAGAAAUAUGUAAUCAGUGCUGUGCAUCUGUCUGCAGCUAAUGUACCUGGAAUUCUCGGGUGCCAA	0.59
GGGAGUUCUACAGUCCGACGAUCUUUGACAGAAACCUAAAGACACAUCCACAUCCAUGCAUAGGGCUGUUGCUUGUUGUGUUGUAGGCAUGCUCUUCUCACCUUCUGUCAAGGACCUGGUGCCCUGGGUGGUGUGGAAUUCUCGGGUGCCAA	9.57
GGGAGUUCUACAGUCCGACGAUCCAAGAACAUGUAAAACUGUGGCUUUUCUGGAAUGGAAUUGGACAUAGCCCAAGAACAGAAAGAACCUUGCUGGGGUUGGAGGUUUCACUUGCACAUCAUGGAGGGUUUAGUGGAAUUCUCGGGUGCCAA	0.681
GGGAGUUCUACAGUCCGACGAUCAUAGUUGAGCGCGUUCUUAGCAGUUGGCUUCAUGGACAACUCAUUAGUGUUUUGACUUUUCUUACCCAGCGUUAAUUGAAUUCUUGCUUUUAGACAACUUCCUUUUUGUAUGGAAUUCUCGGGUGCCAA	0.583

Study 3
Target: CCNA1, cyclin fold, Cln2 fusion (human)
Method: yeast growth competition, sequencing
Matrix: yeast
Notes: weak parent motif
Reference: not given
Reading: higher = stronger binding
Parent: ORC1 docking peptide (human); PRARKRLELGNLG; partner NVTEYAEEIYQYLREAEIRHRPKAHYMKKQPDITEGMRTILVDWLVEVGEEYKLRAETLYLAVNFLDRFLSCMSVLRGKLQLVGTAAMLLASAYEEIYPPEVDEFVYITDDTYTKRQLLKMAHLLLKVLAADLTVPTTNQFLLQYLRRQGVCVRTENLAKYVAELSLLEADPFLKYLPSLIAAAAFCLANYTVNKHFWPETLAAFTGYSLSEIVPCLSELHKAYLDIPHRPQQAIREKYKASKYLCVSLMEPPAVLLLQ
Variant	normalised enrichment score
L9G	-0.000947
L12W	0.658
R6G	0.776
L12K	0.471
N11E	0.263
R6L	0.205
E8S	0.503
N11R	0.43
R6V	0.358
A3M	1.07
K5Q	0.338
G13Y	0.261
L7K	0.705
L7M	0.0655
L9W	0.555
R2S	0.0677
K5A	0.252
N11Y	0.692
P1N	0.534
K5I	0.309
G13P	0.545
L12I	0.324

Study 4
Target: ABI1, truncated, D143A, DHFR fusion (Arabidopsis thaliana)
Method: DHFR PCA, deep sequencing
Matrix: yeast
Notes: methotrexate growth selection, single substitutions
Together with: (+)-ABA 58 µM
Reference: wild-type fitted maximum
Reading: higher = stronger binding
Parent: PYL1, truncated, DHFR fusion (Arabidopsis thaliana); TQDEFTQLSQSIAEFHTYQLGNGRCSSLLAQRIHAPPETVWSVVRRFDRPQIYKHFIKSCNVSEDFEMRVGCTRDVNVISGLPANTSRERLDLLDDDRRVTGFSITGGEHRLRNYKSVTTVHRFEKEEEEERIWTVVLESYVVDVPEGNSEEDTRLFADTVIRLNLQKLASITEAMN
Variant	relative binding score [%]
C60H	-7.03
E139R	0.359
N177P	77.2
L8D	4.51
H122R	11.5
H122K	18.8
C25Y	-12.5
W134K	69.8
L8T	54.6
S150D	76.9
H122F	-0.496
F47I	-6.27

Study 5
Target: CRIPT, C-terminal peptide
Method: DHFR complementation, deep sequencing
Matrix: yeast
Notes: single substitutions, model-inferred values
Reference: wild type
Reading: higher = weaker binding
Parent: ERBIN, PDZ domain 1 (human); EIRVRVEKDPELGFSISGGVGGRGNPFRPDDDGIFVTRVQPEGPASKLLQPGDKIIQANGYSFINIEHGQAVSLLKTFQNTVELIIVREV; partner TKNYKQTSV
Variant	binding free energy change [kcal/mol]
K8L	1.42
R88A	0.0327
S73Q	0.0323
R5Q	0.0938
I86Y	0.216
G69L	0.171
G33N	0.936
Y61K	-0.0876
T77R	-0.00491
G60P	1.1
V39C	0.446
R5E	-0.0224
I16V	0.444
E89G	-0.0186
G22M	-0.369
G13T	1.57
R5L	0.0722
E7W	0.123
D30N	0.224
P26H	0.989
P10V	-0.603
P26A	0.79
D31Q	0.716
I85V	-0.0949
S73I	0.0896

Study 6
Target: Histone acetyltransferase KAT6A, winged helix 2, GST fusion (KAT6A, Homo sapiens, UniProt Q92794, residues 85-181)
Method: protein binding microarray
Molecule type: double-stranded DNA, one strand shown
Matrix: in vitro
Concentration: not given
Notes: 8-mer, flanks averaged, mean of 2 arrays, mostly near background
Reference: not given
Reading: higher = stronger binding
Residues (chain): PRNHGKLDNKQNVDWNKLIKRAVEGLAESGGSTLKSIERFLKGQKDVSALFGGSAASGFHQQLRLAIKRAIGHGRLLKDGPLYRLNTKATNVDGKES
Sequence	E-score
CCGCGAAC	0.117
GAGCGGAC	-0.149
AAGATTCG	0.0648
GTAGCACA	0.0177
GCCGGAGC	0.0924
GACAAGTC	-0.0407
AGTTACCC	-0.0327
GCTACTCC	0.0878
CTGGGCCA	-0.0828
GCGGGACA	0.0664
GGGTCAAC	0.0896
CATCCACA	0.0493
AAGTAACT	0.00956
GTGTGGTA	-0.0921
ACCTCAGG	0.0352
ACCGAATA	-0.0296
TCTGCACA	-0.0292
AATATTCG	0.103
ACCAAATG	-0.131
AGGGAGAC	-0.0202
ACCCGATC	-0.0707
TAGCGACA	0.0288
CATCTTAA	0.0285
AGGGCCGG	0.152
ATGCGAGC	-0.108

Excerpt of the above (study 3):
Variant	normalised enrichment score
R6L	0.205
R6V	0.358
L12K	0.471
L12I	0.324
G13P	0.545
L12W	0.658
R2S	0.0677
K5Q	0.338
